Measured values from different studies.
Compare with care: the assays were run in different laboratories. “And” joins repeats or separate records; there may be more than shown. ± gives the spread as reported.

SMILES	assay	test system	conditions	scale	endpoint	result
CC(C)[C@@H](CN1CC[C@@](C)(c2cccc(O)c2)[C@@H](C)C1)NC(=O)[C@H]1Cc2ccc(O)cc2CN1		Sprague-Dawley rat, brain	intraperitoneal, 10 mg/kg		AUCtotal	27800 ng·h/g
[18F]c1ccc(-c2ccc3c(c2)[nH]c2ccncc23)cn1	ex vivo biodistribution	B6SJL mouse, normal, feces	intravenous, 30 min		SUV	2.49 ± 2.99
CC1(C)CC[C@]2(NC(=O)C(C)(F)F)CC[C@]3(C)[C@H](C(=O)C=C4[C@@]5(C)C=C(C#N)C(=O)C(C)(C)[C@@H]5CC[C@]43C)[C@@H]2C1		human, plasma	oral, 150 mg once daily, day 24 predose, median		trough plasma concentration	36.6 ng/mL
CCCCC[C@H](O)CC[C@@H]1[C@H]2Cc3cccc(OCC(=O)O)c3C[C@H]2C[C@H]1O	LC-MS/MS	Japanese PAH patients aged ≥sample A years, plasma	inhaled, 54 µg		geometric mean half-life	0.79 h
Cc1cc(-c2nccc3c2ccn3CC(=O)Nc2ccc(-c3cnccn3)cn2)ccn1		human, plasma	oral, 15 mg once daily, day 16, geometric mean		terminal half-life	15.7 h
O=C(CCCCCCC(=O)Nc1ccc(CC[18F])cc1)NO		athymic nu/nu male mice, LNCaP xenograft, muscle	intravenous, 0.5 h		tissue uptake	1.9 ± 0.3 %ID/g
COc1ncc(-c2nc3c(n2C(C)C)[C@H](c2ccc(Cl)cc2)N(c2cc(Cl)cn(C)c2=O)C3=O)c(OC)n1		human patients, plasma	oral, 50 mg, 0-24 h, high-dose arm, cycle 2 day 1		AUC(0-t) geometric mean	7180 ng·h/mL
FC(F)(F)c1ccc(CNc2ccc(Cc3c[nH]c4ncc(Cl)cc34)cn2)cn1	measured: Insomnia	patients with advanced solid tumours, non-TGCT cohort	oral, 1000 mg/day, grade 3 or higher		treatment-related adverse events	2%
Cc1nc(-c2ccc(OCC(C)C)c(C#N)c2)sc1C(=O)O		KM mouse, chronic hyperuricaemia model	dose not given, day 27		body weight	38.1 g and 35.9 g and 44.6 g and 34.4 g and 41.2 g and 40.1 g
C=CCN1CC(=O)N2[C@@H](Cc3ccc(O)cc3F)C(=O)N(Cc3cccc(N4CC(N5CCN(CC)CC5)C4)n3)C[C@@H]2N1C(=O)NCc1ccccc1	measured: ALT increased	human advanced solid tumours	concentration not given, dose escalation any grade		treatment-related adverse events	11.1%
CC(C(=O)NCC(=O)NCC(CNC(=O)CNC(=O)C(C)N1CCN(CC(=O)[O-])CCN(CC(=O)[O-])CCN(CC(=O)[O-])CC1)(CNC(=O)CNC(=O)C(C)N1CCN(CC(=O)[O-])CCN(CC(=O)[O-])CCN(CC(=O)[O-])CC1)CNC(=O)CNC(=O)C(C)N1CCN(CC(=O)[O-])CCN(CC(=O)[O-])CCN(CC(=O)[O-])CC1)N1CCN(CC(=O)[O-])CCN(CC(=O)[O-])CCN(CC(=O)[O-])CC1.[Gd+3].[Gd+3].[Gd+3].[Gd+3] (centres unmarked)	ICP-MS	cynomolgus monkey, feces	2 days post-injection	reference: dose	cumulative fecal excretion	0.2%
O=C1CC[C@H](N2Cc3cc(N4CCN(CC5CCN(c6ccc([C@@H]7c8ccc(O)cc8CC[C@@H]7c7ccccc7)cc6)CC5)CC4)ccc3C2=O)C(=O)N1		human	oral, 200 mg, added: dabigatran etexilate 75 mg		participants with TEAEs	25%
NC1(C(=O)N[C@@H](CCO)c2ccc(Cl)cc2)CCN(c2nc[nH]c3nccc2-3)CC1		metastatic CRPC patients	400 mg b.i.d., any grade, treatment-related, added: enzalutamide 160 mg daily		incidence of Dyspepsia	28.6%
O=C(O)c1cccc(C(=O)O)c1		betaine/ethylene glycol DES-water	DES mass fraction 0.10		apparent dissolution enthalpy	3.87 kcal/mol
O=C(CCC(C(=O)[O-])N1CCN(C(CCC(=O)NCC(O)CO)C(=O)[O-])Cc2cccc(n2)CN(C(CCC(=O)NCC(O)CO)C(=O)[O-])CC1)NCC(O)CO.[Gd+3] (centres unmarked)	LA-ICP-MS	rat, femur subcortical bone	0.6 mmol Gd/kg, 1 week		maximum Gd concentration	~80 nmol/g and 80 nmol/g
COc1c(N2C[C@@H]3CCCN[C@@H]3C2)c(F)cc2c(=O)c(C(=O)O)cn(C3CC3)c12		healthy volunteers	oral, 400 mg single dose, day 5, 2.00 h		QTcI change from baseline	3.9 ms
CNCc1ccc(-c2[nH]c3cc(F)cc4c3c2CCNC4=O)cc1		human patients	oral, 840 mg twice daily, all grades		neutropenia incidence	0%
CN1CCN(C(=O)[C@H](CCCN[C@@H]2C[C@H]2c2ccc(F)cc2)NC(=O)c2ccc(-n3ccnn3)cc2)CC1		C57BL/6 mice	oral, 40 to 60 mg/kg/day, 7 days		mean platelet volume	increased
CC(=O)N[C@@H](CC(N)=O)C(=O)N[C@@H](CC(N)=O)C(=O)N[C@@H](CC(C)C)C(=O)N[C@H]1CSSC[C@@H](C(=O)N[C@H](C(N)=O)[C@@H](C)O)NC(=O)[C@H](CCCNC(=N)N)NC(=O)[C@H](Cc2c[nH]cn2)NC(=O)[C@H](C)NC(=O)CNC(=O)[C@H](Cc2c[nH]c3ccccc23)NC(=O)[C@H](CC(=O)O)NC(=O)[C@H](CCC(N)=O)NC(=O)[C@H](Cc2c[nH]c3ccccc23)NC(=O)[C@H](C(C)C)NC1=O	RP-HPLC, C18	28% acetonitrile isocratic	pH 7.4		retention factor	1.047 ± 0.01
C[C@@H](Oc1ccc(S(C)(=O)=O)cc1C(=O)N1C[C@@H]2C[C@]2(c2cc(C(F)(F)F)on2)C1)C(F)(F)F	measured: 14C radioactivity	human, urine	oral, 25 mg, 0 to 677 h, geometric mean	reference: dose	urinary excretion	48.1%
CN(C)C(=N)N=C(N)N	measured: nervous system disorders	healthy men	oral, dose not given, 8 days, treatment-emergent, crossover trial		subjects with adverse event	13.6%
Cc1ccc([C@@H]2O[C@H](CO)[C@@H](O)[C@H](O)[C@H]2O)cc1Cc1ccc(-c2ccc(F)cc2)s1	measured: inorganic phosphorus	Japanese type 2 diabetes patients	25 mg, day 15, 24 h urine collection	reference: baseline	urinary phosphate excretion change	0.128 mg
CCCOc1ccc(-c2ccc(C#N)cc2)cc1		Sprague-Dawley rat, female, fetus	1000 ng/mL in perfusate, 50 (unit not given), middle dose, mixture of 21 LCMs		fetal accumulation	5.9 ± 1.7 ng/g
CCCCCCCCCCCCCCCC(=O)N[C@@H](CCC(=O)NCCCC[C@@H]1NC(=O)[C@H]([C@@H](C)CC)NC(=O)[C@@H](NC(=O)[C@@H]2CCCN2C(=O)[C@H](Cc2ccccc2)NC(=O)[C@H](Cc2c[nH]cn2)NC(=O)[C@@H](NC(=O)[C@H](CC(=O)O)NC(=O)CC(C)C)[C@@H](C)O)CSSC[C@@H](C(=O)N[C@@H](CCCCN)C(N)=O)NC(=O)CNC(=O)[C@H](CCCCN)NC(=O)[C@H](CO)NC(=O)[C@H](CCCNC(=N)N)NC(=O)[C@@H]2CCCN2C(=O)[C@H](CCC(=O)O)NC(=O)[C@H](Cc2ccccc2)NC1=O)C(=O)O		healthy volunteers, plasma	subcutaneous, 30 mg single, lyophilised formulation		Vz/F	47.3 ± 18.4 L
CCCCCCCCCCCCCCCC(=O)[O-].C[N+](C)(C)CCO	fluorescence probe	water	37 °C		critical aggregation concentration	8.74 ± 0.08 mmol/L

SMILES	assay	test system	conditions	scale	endpoint	result
Cl.[2H]C([2H])([2H])CC(=O)c1cnc(NC(=O)C2CC2)cc1Nc1cccc(-c2ncn(C([2H])([2H])[2H])n2)c1OC	geometric mean	human	oral, 20 mg twice daily, day 7, fed, liquid, multiple dose		elimination rate constant	2.5e-05 s⁻¹
C[C@@H]1CCO[C@H]2Cn3cc(C(=O)NCc4ccc(F)cc4F)c(=O)c(O)c3C(=O)N12	population PK, post-hoc	children, 20 to <25 kg, plasma	oral, 30 mg dispersible tablet, 24 h, steady state, geometric mean		plasma concentration	607 ng/mL
CN1C(=O)[C@@H](NC(=O)c2nnc(Cc3ccccc3)[nH]2)COc2cccnc21		healthy human, fasted, plasma	oral, 100 mg single dose, geometric mean		terminal half-life	6 h
O=C(O)CCC(=O)O.[2H]C([2H])([2H])Oc1cc(C)c2[nH]ccc2c1CN1CC[C@@H](C2CC2)C[C@H]1c1ccc(C(=O)O)cc1		healthy Chinese subjects	50 mg, single ascending dose		TEAE decreased white cells	0%
CC(C)NCCCC[C@@H]1NC(=O)[C@H](Cc2ccc(O)cc2)NC(=O)[C@H](Cc2ccccc2)NC(=O)CC[C@H](C(=O)N[C@@H](CCCCNC(C)C)C(=O)N[C@@H](CCCCNC(=O)[C@H](CCC(=O)O)NC(=O)[C@H](CCC(=O)O)NC(=O)[C@H](CCC(=O)O)NC(=O)CN2CCN(CC(=O)O)CCN(CC(=O)O)CCN(CC(=O)O)CC2)C(N)=O)NC(=O)CNC(=O)[C@H](Cc2ccc3ccccc3c2)NC(=O)[C@@H](CCCNC(=N)N)NC1=O [gallium-68 labelled]		mouse with Daudi xenograft, blood	intravenous, 1 h		tissue uptake	0.27 %ID/g
CCn1cc(C(=O)N2CCOCC2)c(=O)c2cc(NC3Cc4ccccc4C3)cnc21		human male, fed, plasma	oral, 900 mg twice daily, day 7, tablet, arithmetic mean		half-life	5.85 h
C[C@@H]1COCCN1c1cc(C2([S@](C)(=N)=O)CC2)nc(-c2cc[nH]c3nccc2-3)n1		Japanese advanced solid tumour patients	oral, 160 mg twice daily, any grade		Pyelonephritis incidence	0%
C[C@@H](Nc1cc(F)cc(F)c1)c1cc(C(=O)N(C)C)cc2c(=O)cc(N3CCOCC3)oc12	CTCAE v4, measured: macular rash	patients with advanced solid tumours	oral, dose not given, phase I dose finding		patients with related SAE	1.6%
O=C(Nc1cnccc1Cl)N1CCN(Cc2ccc3c(c2)OC(F)(F)O3)CC1		healthy young men, plasma	oral, 75 mg once daily, day 1		AUC(0-24)	4770 ng·h/mL
CCN1CCN(Cc2ccc(Nc3ncc(F)c(-c4cc(F)c5nc(C)n(C(C)C)c5c4)n3)nc2)CC1		human, plasma	oral, absorption model estimate		Km	53.6 µM
C[C@@]1(O)C[C@]23C[C@H]1CC[C@H]2[C@]1(C)CCC(=O)Nc2c(O)ccc(c2O)C(=O)S[C@H]2CC(=O)[C@@](C)(CCC(=O)Nc4c(O)ccc(c4O)C(=O)S[C@H]3CC1=O)[C@@H]1CC[C@@H]3C[C@]21C[C@@]3(C)O		C57BL/6 mice, plasma	intravenous, 10 mg/kg		clearance	3 mL/min/kg
O=C(N[C@H](Cc1c[nH]c2ccccc12)C(=O)Nc1ccncc1)c1ccc(N2CCN(c3ccc(F)c(F)c3)CC2)cc1F		Swiss Webster mouse, female, brain	oral, 50 mg/kg, 8 h, 20% HPβCD vehicle		concentration	20 nM
O=c1c2ccccc2oc2ccccc12		tricaprin-tricaprylin mixture	75 °C, tricaprin fraction 0.17		solubility	0.0899 mole fraction
COc1cc2c3c(n(CCCN4CCOCC4)c(=O)c2cc1OC)-c1cc2c(cc1C3=O)OCO2		beagle dog, male, plasma	intravenous infusion, 50 mg/m^2, 1 h infusion, vehicle 1		Vz	348 ± 105 L/m²
OC[C@H]1O[C@@H](c2ccc(F)c(Cc3cc4ccccc4s3)c2)[C@H](O)[C@@H](O)[C@@H]1O		Japanese type 1 diabetes patients	oral, 50 mg/day, day 2		hypoglycaemia adverse events	9 % patients
CN(CCCNC(=O)c1cccc(C(=O)O)c1)CCCNC(=O)c1cc(NC(=O)c2cc(NC(=O)c3cc(NC(=O)c4nc(NC(=O)C[C@H](CNC(=O)c5cc(NC(=O)c6cc(NC(=O)c7cc(NC(=O)c8nccn8C)cn7C)cn6C)cn5C)NC(=O)c5ccccc5)cn4C)cn3C)cn2C)cn1C	dynamic light scattering	0.1% DMSO in PBS	25 °C		critical aggregation concentration	0.001 mmol/L
CC(C)(C)c1ccc(O)c(CN(Cc2cc(C(C)(C)C)ccc2O)C2CCC(NC(N)=O)CC2)c1 (centres unmarked)		mouse plasma	2000 ng/mL, 3 months, 4 °C, refrigerator storage		recovery	96.81 ± 0.08%
C[C@]12CC[C@H](O)CC1=CC[C@@H]1[C@@H]2CC[C@]2(C)C(c3cccnc3)=CC[C@@H]12		FaSSIF	literature solubility over dose		dose-adjusted solubility	7.83e-06 mL⁻¹
CCCOc1ccc([C@H]2CNC(=O)N2c2ccc3[nH]cnc3c2)cc1		human volunteers fasted, plasma	oral capsule, 200 mg single dose, crossover, geometric mean		AUC(0-12h)	2020 ng·h/mL
C[C@@H]1CN(CC(=O)N2CC(C)(C)c3nc(CO)c(Cc4ccc(F)cc4)cc32)[C@@H](CN2CCOC[C@H]2C)CN1		cynomolgus monkey, male	oral, 5 mg/kg		AUC(0-last)	525 ± 187 ng·h/mL
O=C(Nc1nc2cccc(-c3ccc(CN4CCS(=O)(=O)CC4)cc3)n2n1)C1CC1	measured: angina pectoris	rheumatoid arthritis patients	oral, 300 mg once daily, 4 weeks, any relatedness		patients with adverse event	0%
O=C(Nc1ccc(OC(F)(F)Cl)cc1)c1cnc(N2CC[C@@H](O)C2)c(-c2ccn[nH]2)c1	per treatment cycle, measured: bilirubin increase	human patients	oral, dose not given, 28 day cycle, dose-finding study		grade ≥2 event rate	1.3%
Cc1nn(CC(F)(F)F)cc1Nc1ncc(Br)c(NCCc2cnc[nH]2)n1	PAMPA	PBS	5 h, pH 7.4		effective permeability	1.51 ×10⁻⁶ cm/s
CCc1cc(C(=O)NC)c2nccc(N3CCc4c(cc(Cn5ccnc5)cc4-c4cn(C)nc4C(F)(F)F)C3=O)c2c1		Sprague Dawley rats	oral, 100 mg/kg once daily, 7 days		serum albumin	33 ± 1.45 g/L
CC(C)(C(=O)N1CCOc2c(C#N)cncc2C1)C(F)F	measured: nervous system disorders	human	oral, 20 mg once daily, 14 days, multiple ascending dose		subjects with adverse event	12.5%
